Results from different studies.
Lines come from different studies, so protocols differ. Several values in a cell are separate wells, animals, samples, runs or records. ± gives the spread as reported.

For `CC[C@H](C)C(=O)N1CCC(NC(=O)Nc2ccc(OC(F)(F)F)c(F)c2)CC1`, “subjects with any AE” read 100% (healthy volunteers; oral, 16 mg single dose, 14 (unit not given)).
`CSCC[C@H](NC(=O)CNC(=O)[C@H](CC(=O)O)NC(=O)[C@@H](NC(=O)[C@@H](NC(=O)[C@@H](NC(=O)CNC(=O)[C@H](CCC(N)=O)NC(=O)[C@H](CCSC)NC(=O)[C@H](CC(=O)O)NC(=O)[C@H](C)NC(=O)[C@H](C)NC(=O)[C@@H](NC(=O)[C@H](CO)NC(=O)[C@@H](N)CC(C)C)[C@@H](C)O)C(C)C)C(C)C)[C@@H](C)O)C(=O)N[C@@H](C)C(=O)N[C@@H](CO)C(=O)NCC(=O)N[C@@H](CC(C)C)C(=O)N[C@@H](CC(=O)O)C(=O)N[C@@H](CCCCN)C(=O)N[C@@H](CC(=O)O)C(=O)N[C@@H](Cc1ccc(O)cc1)C(=O)N[C@@H](CC(C)C)C(=O)N[C@@H](CCCCN)C(=O)N1CCC[C@H]1C(=O)N[C@@H](CC(=O)O)C(=O)N[C@@H](CC(=O)O)C(=O)O` — result for “terminal half-life (t1/2γ)”: 1.61 h (LC-MS/MS; patients, serum; intravenous infusion, 2.50 mg/kg).
With `O=C(CN1CCN(c2cc3c(cc2F)c(=O)c(C(=O)O)cn3C2CC2)CC1)Nc1ccc(Cl)cc1` the MRT was 9.33 h (mouse, plasma; intravenous, 3.75 mg/kg).
Under “remaining intact peptide”, `CC[C@H](C)[C@@H]1NC(=O)[C@H](CCCCN)NC(=O)[C@H](CCCCN)NC(=O)[C@H](Cc2ccc(O)cc2)NC(=O)[C@H](CC(C)C)NC(=O)[C@@H]2CCCN2C(=O)[C@H](C)NC(=O)CNC(=O)CNC(=O)[C@H](CO)NC(=O)CNC(=O)CNC(=O)[C@H](CO)NC(=O)[C@H](CCC(=O)O)NC(=O)[C@H](CC(C)C)NC(=O)[C@H](CC(C)C)NC(=O)[C@H](CCCCN)NC(=O)[C@H](CCCNC(=N)N)NC(=O)[C@H]([C@@H](C)CC)NC(=O)[C@H]([C@@H](C)CC)NC(=O)[C@H](CCCCN)NC(=O)[C@H](CCCCN)NC(=O)[C@H](Cc2ccc(O)cc2)NC(=O)[C@H](CC(C)C)NC(=O)[C@@H]2CCCN2C(=O)CNC(=O)CNC(=O)[C@@H](NC(=O)CN)CSSC[C@@H](C(N)=O)NC(=O)[C@H](CC(C)C)NC(=O)[C@H](CCCCN)NC(=O)[C@H](CCCNC(=N)N)NC(=O)[C@H]([C@@H](C)CC)NC1=O` is recorded as 5.6 ± 0.2% (25% human serum; 50 µM, 24 h; relative to: 0 h control).
The water solubility of `CC(=O)NC1C(OC2OC(CC(O)C3OC(n4ccc(=O)[nH]c4=O)C(O)C3O)C(O)C(O)C2NC(=O)COCc2ccc(N3CCC(Oc4ccc(OC(F)(F)F)cc4)CC3)cc2)OC(CO)C(O)C1O` (stereo not drawn) is reported as 35 mg/mL (HCl salt).
`CN(C)C(CNC(=O)Nc1cc(C(F)(F)F)ccc1N1CCOCC1)c1ccncc1` (stereo not drawn): “serum total CO2” 19 mmol/L (mouse, serum; intraperitoneal, 120 mg/kg single dose).
For `COCC(=O)NCCSc1c(-c2ccc(Br)cc2)[nH]c2ccccc12`, the hepatocyte CLint was over 400 µL/min/10⁶ cells (metabolic stability; rat, hepatocytes).
The t1/2 of `COc1cc(NC(=O)C(=O)c2c(C)n(Cc3ccc(Cl)cc3)c3ccc(C)cc23)ccn1` is reported as 19.4 h and 30.3 h and 19.9 h and 19.7 h and 15.7 h (cynomolgus monkey, female, plasma; oral, 10 mg/kg).
For `COc1cc2ncnc(Oc3cccc(N[11C](=O)Nc4cc(C(C)(C)C(F)(F)F)on4)c3)c2cc1OC`, the radioactivity was 3.69 ± 0.35 %ID/g (female Balb/c nude mice, plasma; intravenous, dose not given, 5 min).
The concentration of `CCN(Cc1ccccc1)C(=O)CCc1nc(CN2CCN(C(=O)Cc3ccc(OC)c(OC)c3)CC2)no1` is reported as 122 ng/mL (rat, plasma; intravenous, 1 mg/kg, 30 min).
The AUC ratio of `CC(=CCC(O)C(C)=Cc1csc(C)n1)CC=CC(C)C(O)C(C)C(=O)C(C)(C)C(O)CC(=O)O` (stereo not drawn) is reported as 9.75 ± 2.55% (human, plasma; intravenous infusion, 15.0 mg/m2 KOS-1584, 3 h infusion, cycle 1; relative to: metabolite over KOS-1584).
The dead embryos of `CC(C)C(=O)OC1O[C@@H]2O[C@@]3(C)CC[C@H]4[C@H](C)CCC([C@H]1C)[C@@]24OO3` (stereo partly drawn) is reported as 2 count (Tg(fli1:EGFP) zebrafish embryos; 0.5 µg/mL, up to 48 hpf).
With `c1ccc(C2(CCNC3CCC4(SCCS4)c4ccccc43)CCOC3(CCCC3)C2)nc1` (stereo not drawn) the concentration was 1060 ng/mL (rats, plasma; intravenous, dose not given, 0.25 h).
`CC[C@H](C)[C@H](NC(=O)[C@H](CC(=O)O)NC(=O)[C@H](CO)NC(=O)[C@H](CCC(N)=O)NC(=O)[C@H](C)NC(=O)[C@H](CC(=O)O)NC(=O)[C@H](CCC(=O)O)NC(=O)[C@H](Cc1c[nH]cn1)NC(=O)[C@H](Cc1ccc(O)cc1)NC(=O)[C@H](C)NC(=O)[C@H](CC(=O)O)NC(=O)[C@H](CCC(=O)O)NC(=O)[C@H](Cc1c[nH]cn1)NC(=O)[C@H](Cc1ccc(O)cc1)NC(=O)[C@H](C)NC(=O)[C@H](CC(=O)O)NC(=O)[C@H](CCC(=O)O)NC(=O)[C@H](Cc1c[nH]cn1)NC(=O)[C@H](Cc1ccc(O)cc1)NC(=O)[C@H](C)NC(=O)[C@H](CC(=O)O)NC(=O)[C@H](CCC(=O)O)NC(=O)[C@H](Cc1c[nH]cn1)NC(=O)[C@H](Cc1ccc(O)cc1)NC(=O)[C@H](C)NC(=O)[C@H](CC(=O)O)NC(=O)[C@H](CCC(=O)O)NC(=O)[C@H](Cc1c[nH]cn1)NC(=O)[C@@H](N)Cc1ccc(O)cc1)C(=O)N[C@H](C(=O)N[C@@H](C)C(=O)N[C@@H](Cc1c[nH]cn1)C(=O)N[C@@H](CC(C)C)C(=O)N[C@@H](CC(C)C)C(=O)O)C(C)C`: “NE share of white cells” 17.7 ± 3.4% (mouse SN model, blood; dose not given).
The helicity of `CC[C@H](C)[C@H](NC(=O)[C@H](Cc1ccccc1)NC(=O)[C@H](CC(=O)O)NC(=O)[C@@H]1CCNC(=O)NCCC[C@H](NC(=O)[C@H](CC(C)C)NC(=O)[C@H](CCCNC(=N)N)NC(=O)[C@H](CCSC)NC(=O)[C@H](C)N)C(=O)N[C@@H](CCCCN)C(=O)N[C@@H](Cc2ccccc2)C(=O)N[C@@H](Cc2ccccc2)C(=O)N1)C(=O)N[C@@H](CC(C)C)C(=O)N[C@@H](CCC(N)=O)C(=O)N[C@@H](CCCNC(=N)N)C(=O)N[C@@H](CCCCN)C(=O)N[C@@H](CCCCN)C(=O)O` is reported as 18.5% (circular dichroism; 20% TFE in PBS; 200 µM, pH 7.4, 25 °C).
`CCCS(=O)(=O)c1ccc2[nH]c(NC(=O)OC)nc2c1` has a percent metabolized of 11.1% (human liver mitochondrial preparation; 1 µM, 30 min, 0.5 mg/mL protein).
For `CCCC[C@H]1C(=O)N(C)[C@@H](CCCC)C(=O)N[C@@H](CCCNC(=O)CN2CCN(CC(=O)O)CCN(CC(=O)O)CCN(CC(=O)O)CC2)C(=O)N[C@H](C(=O)NCC(N)=O)CSCC(=O)N[C@@H](Cc2ccc(O)cc2)C(=O)N(C)[C@@H](C)C(=O)N[C@@H](CC(N)=O)C(=O)N2CCC[C@H]2C(=O)N[C@@H](Cc2c[nH]cn2)C(=O)N[C@@H](CC(C)C)C(=O)N(C)CC(=O)N[C@@H](Cc2c[nH]c3ccccc23)C(=O)N[C@@H](CO)C(=O)N[C@@H](Cc2c[nH]c3ccccc23)C(=O)N1C` [gallium-68 labelled], “tumour to muscle ratio” read 2.55 ± 0.5 (static PET; NOD/SCID mice, CHO-hPD-L1 xenograft, CHO-hPD-L1 tumour; intravenous, 1 h post injection, after five atezolizumab treatments, together with: atezolizumab 10 mg/kg).
`O=c1cc(-c2ccccc2)oc2c(Br)c(O)c(O)c(O)c12`: “AUC extrapolated to infinity” 7.9 ± 6.3% (C57BL/6 mouse, plasma; intravenous, 10 mg/kg).
For `CCCCCCCCCCCCC(=O)O.O=C1CCCC2C3CCCN4CCCC(CN12)C34` (stereo not drawn), “entropic term −TΔS of micellization” read -5.82 kcal/mol (electrical conductivity; water; 293.15 K, critical micelle concentration).
For `CN[C@](C)(C[18F])C(=O)O`, the tissue uptake was 2.7 ± 0.5 %ID/g (SCID mouse MDA-MB-468 xenograft, kidney; 120 min post injection).
`Cc1ccc2c(n1)c(-c1cccc(S(C)(=O)=O)c1)c(C)n2C/C(F)=C/CN` has a terminal half-life of about 24 h (healthy male subjects, plasma; oral, dose not given, single ascending dose).

For quick reference, copied from above:
`CSCC[C@H](NC(=O)CNC(=O)[C@H](CC(=O)O)NC(=O)[C@@H](NC(=O)[C@@H](NC(=O)[C@@H](NC(=O)CNC(=O)[C@H](CCC(N)=O)NC(=O)[C@H](CCSC)NC(=O)[C@H](CC(=O)O)NC(=O)[C@H](C)NC(=O)[C@H](C)NC(=O)[C@@H](NC(=O)[C@H](CO)NC(=O)[C@@H](N)CC(C)C)[C@@H](C)O)C(C)C)C(C)C)[C@@H](C)O)C(=O)N[C@@H](C)C(=O)N[C@@H](CO)C(=O)NCC(=O)N[C@@H](CC(C)C)C(=O)N[C@@H](CC(=O)O)C(=O)N[C@@H](CCCCN)C(=O)N[C@@H](CC(=O)O)C(=O)N[C@@H](Cc1ccc(O)cc1)C(=O)N[C@@H](CC(C)C)C(=O)N[C@@H](CCCCN)C(=O)N1CCC[C@H]1C(=O)N[C@@H](CC(=O)O)C(=O)N[C@@H](CC(=O)O)C(=O)O` — result for “terminal half-life (t1/2γ)”: 1.61 h (LC-MS/MS; patients, serum; intravenous infusion, 2.50 mg/kg).
